Experimental data of several laboratories.
Every numbered part comes from another study and shows a few of its results, in no order. Substitutions count along the parent as printed.

Block 1
Target: RNA binding protein fox-1 homolog 2, RRM domain, GST-SBP tag (RBFOX2, Homo sapiens, UniProt O43251-10, residues 100-194)
Technique: RNA Bind-n-Seq
Form: RNA
Matrix: in vitro
Tested at: 365 nM
Setting: natural RNA segment, single round, ends assumed
Reference: no-protein control
Reading: higher = stronger binding
All sequences stand within: GGGAGUUCUACAGUCCGACGAUC … UGGAAUUCUCGGGUGCCAA
Residues (chain): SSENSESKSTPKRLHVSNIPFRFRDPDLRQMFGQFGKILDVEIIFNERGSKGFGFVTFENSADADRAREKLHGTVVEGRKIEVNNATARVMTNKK
| Sequence | RBNS enrichment (R) |
| --- | --- |
| GCUGCUGGGGAUUCAGCUCUAGAGGUCACAGUAUCCUCGUUUGAAAGAUAAUUAAGAUCCCCCGUGGAGAAAGCAGUGACACAUUCACACAGCUGUUCCCUCGCAUGUUA | 11.9 |
| CACUUCUCCUUUACGCUGUGUAGAGAAUGCUCUGCAGUUUAGGCAAUAAAAAUAAAUUGUCUCACUACCUUGGCUCAUCUCUUUGGCCUAGAUUCUCCUGGGAUUUACUU | 0.366 |
| CAUGAGGAGAAAAAAAGCAUGUGUCAUGCAUGAAGGAAACUGAACUUGAGGUGGCCUCCUUGCUUGUUACAUACCUGGGUAUGUGUAGGCAGUUUAGUGCAUCUUUGCCU | 8.69 |
| CUGGUGCCGGCCUUGCCUGCAGCAAUGUAGCUGAGGACUGGUCUGAAGGCCAGGAGCCCUGUGCUCUUGACAUCACUGUACUCCCUCUCCCUCCCCGCAACCCUGCCCCA | 0.464 |
| GACAUGAGCAUCUUGGGAUAUCUCUUUAACACUCAAGUAGCAAUUAAAGUUGAUUGUUCAGCUGGAGCCCAGAGAAUUUAAUUACUGUUUUUUUCUUUGUACCUGAUGUG | 0.47 |
| UUUAAUUUUCUGUCUGAUGUCACAGAUCAUUGUUGCACACAAACGUGGCAUAGAAAAGAACAUGUUCAGAAGCCAUGGGGCCAAGCACAUGCGGGGACGGUCUCAAAUGC | 0.682 |
| GAUUAAGGGCCUGGCCCCCAGGGUUGUCCAGCUCCAUAAGGUGGAGCUGGGCAAGAUUUUGGGUUUGCUGCUCCCUGAAGCUGGAUUCUUUCAUACGAUACUCUUUCUCA | 0.335 |
| UUGUUUUAUAGUUAUUUACGAUUUCGUUUGUUUGGAUUCAAGCUUAGUUUGUUAAUAUGUAUAAUUUAGCAUCUAUUACACUCAUGUAAAUAUGGAGUAAGUAUUGUAAA | 0.758 |

Block 2
Target: RING finger protein unkempt homolog, zinc fingers 1-6, SBP tag (UNK, Homo sapiens, UniProt Q9C0B0, residues 30-357)
Chain of UniProt Q9C0B0 (30-357, looked up): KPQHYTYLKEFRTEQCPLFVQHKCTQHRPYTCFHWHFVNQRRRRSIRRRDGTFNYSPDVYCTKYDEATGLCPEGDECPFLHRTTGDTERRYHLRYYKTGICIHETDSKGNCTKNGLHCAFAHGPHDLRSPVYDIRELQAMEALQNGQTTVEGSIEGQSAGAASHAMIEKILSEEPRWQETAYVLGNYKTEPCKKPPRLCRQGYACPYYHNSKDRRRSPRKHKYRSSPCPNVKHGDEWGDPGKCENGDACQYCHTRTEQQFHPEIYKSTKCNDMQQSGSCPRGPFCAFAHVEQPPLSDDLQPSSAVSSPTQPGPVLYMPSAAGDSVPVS
Technique: RNA Bind-n-Seq
Form: RNA
Matrix: in vitro
Tested at: 100 nM
Setting: RNA with constant flanks, vertebrate orthologous sites, ends assumed
Reference: input RNA pool
Reading: higher = stronger binding
All sequences stand within: GGGAGUUCUACAGUCCGACGAUC … CAACAGAGGAUUGAGCAUCA
| Sequence | bound/input enrichment |
| --- | --- |
| UCCAGGCACAACUGACUGGUUCACAGCAUUCCUUACACACUUUUUUAUCAAGUGCAAGUGGAAGUGAUUUUCAGGAUACAUCUCGGCAGUCGCCUCUGUCUUGUAGCCCAGUUGGCGAUG | 0.503 ratio |
| UCAUAAUCACUCUAAUUGUAAUCUGAAUAAAGUGUAACAUGUGUAGCCUUUUGUAUAAAAUAGACAAAUAGAAAUGGUCCAAUUAGUUUCCUUUUUAAUAUGCUUAAAAUAAGCAGGUGG | 2.43 ratio |
| UAAUGUGUUUUUAUUUAUCGAGGAUAGUUUUGUGCUAAAGACCGUGUUAGAUUUAAACAUUAGUGGAUUUAAUUCCUCUUUGUUGUGUUGCUUUCAUUAUUGAAAAUAAAUAGAACUUUG | 0.322 ratio |
| AGGGACGCUUUGAUGUAAAAAUUGAAGUUAAGAGCUGAUCACAAGCACAAAUCUUUCCCACUAGCCAUUUAAAAAGUUAAAAGAUACAAAAAACAAAAACCUACUAGUCUUGAAUAAACU | 2.66 ratio |
| AAAUCUACUUCAUGCCGUGGACUCCUUACAGGACAGACACUCUCAUCGAGUACUCCUCCCUGGACGACUUCCAAAACGCUCGGCAGACCAUCACCUACAAGCUGCCCCACCGGGUGGACG | 0.653 ratio |
| UACUUCCUCCAUUCUGAUUUGGAAACUGGUGAAAAAUGCCUGUGGUUAAAUUGUAAGUUUCCUCGCUAGCGUUAGGAGAGCCAGAAUUUUCCCACUGUUUAUUUUUAAUUUAAUAAAAGG | 0.288 ratio |
| GCACAUGCCGCUAUUACCAAAAGCAGACUGCCACUUUUCAAAUUUCAUUCAGUCAUUUUAGUGUUUCCUAUUCCCUACCCUUCCCACAACUUUCAAUGAUGAAAUAUCCUCAGUUCUCUU | 2.42 ratio |
| AGCAACCCAAGGAUUCAGGACUGGUCUUAUAAAUAUACCAAGUAAAUAUGGAACUAACAAUAGAAUUGGACAACCAAGACCUUAAUGCACUCUAUUUUAAUUUAUUUUUGUGAGGAAUUU | 0.445 ratio |

Single results of other studies
P1: PafA, mature enzyme, eGFP fusion (Elizabethkingia meningoseptica, UniProt Q9KJX5); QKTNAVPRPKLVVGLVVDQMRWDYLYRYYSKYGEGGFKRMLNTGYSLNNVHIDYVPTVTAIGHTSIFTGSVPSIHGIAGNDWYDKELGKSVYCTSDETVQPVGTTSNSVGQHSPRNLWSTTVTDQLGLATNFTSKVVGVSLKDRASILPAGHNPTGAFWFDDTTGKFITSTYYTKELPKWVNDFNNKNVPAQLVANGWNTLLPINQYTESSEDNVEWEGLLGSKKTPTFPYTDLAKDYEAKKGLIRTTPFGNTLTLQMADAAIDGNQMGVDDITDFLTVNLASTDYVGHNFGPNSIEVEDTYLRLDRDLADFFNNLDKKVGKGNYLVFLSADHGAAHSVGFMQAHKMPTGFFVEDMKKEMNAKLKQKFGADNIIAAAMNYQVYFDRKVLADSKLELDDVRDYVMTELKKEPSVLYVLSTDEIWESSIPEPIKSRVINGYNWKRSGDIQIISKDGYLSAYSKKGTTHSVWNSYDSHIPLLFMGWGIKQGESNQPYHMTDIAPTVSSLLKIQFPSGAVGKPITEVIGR
P2: viral docking peptide; YKVKRRLVFGADD; partner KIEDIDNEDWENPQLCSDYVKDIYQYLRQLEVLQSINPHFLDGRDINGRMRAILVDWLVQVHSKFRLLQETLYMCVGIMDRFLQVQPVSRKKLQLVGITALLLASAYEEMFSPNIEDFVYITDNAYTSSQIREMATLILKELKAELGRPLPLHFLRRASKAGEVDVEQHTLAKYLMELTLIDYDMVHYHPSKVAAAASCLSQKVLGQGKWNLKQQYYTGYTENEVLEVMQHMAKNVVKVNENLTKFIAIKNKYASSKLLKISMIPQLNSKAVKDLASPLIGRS
| Variant | target | assay | system | setting | how to read | endpoint | value |
| --- | --- | --- | --- | --- | --- | --- | --- |
| P1 A195G | inorganic phosphate, free oxyanion | microfluidic competitive inhibition | in vitro, cell-free expressed | not given, derived from inhibition constants, unchanged parent 615000 nM | lower = stronger binding | phosphate dissociation constant | 554 µM |
| P2 L7Y | CCNB2, cyclin fold, Cln2 fusion (human) | yeast growth competition, sequencing | yeast | strong parent motif | reference: not given, higher = stronger binding | normalised enrichment score | 0.509 |
| P1 T164G | inorganic phosphate, free oxyanion | microfluidic competitive inhibition | in vitro, cell-free expressed | not given, derived from inhibition constants, unchanged parent 615000 nM | lower = stronger binding | phosphate dissociation constant | 451 µM |

Some of these lines once more (block 1):
| Sequence | RBNS enrichment (R) |
| --- | --- |
| CAUGAGGAGAAAAAAAGCAUGUGUCAUGCAUGAAGGAAACUGAACUUGAGGUGGCCUCCUUGCUUGUUACAUACCUGGGUAUGUGUAGGCAGUUUAGUGCAUCUUUGCCU | 8.69 |
| UUUAAUUUUCUGUCUGAUGUCACAGAUCAUUGUUGCACACAAACGUGGCAUAGAAAAGAACAUGUUCAGAAGCCAUGGGGCCAAGCACAUGCGGGGACGGUCUCAAAUGC | 0.682 |
